# Results gathered from unrelated publications.
# A part holds a random share of what one study measured. Changes are numbered by the printed parent chain.

# Set 1 — method: DHFR PCA, deep sequencing; medium: yeast; together with: (+)-ABA 0 µM; relative to: wild-type fitted maximum; reading: higher = stronger binding
# Target: ABI1, truncated, D143A, DHFR fusion (Arabidopsis thaliana)
# Setting: methotrexate growth selection, single substitutions
# Starting sequence: PYL1, truncated, DHFR fusion (Arabidopsis thaliana); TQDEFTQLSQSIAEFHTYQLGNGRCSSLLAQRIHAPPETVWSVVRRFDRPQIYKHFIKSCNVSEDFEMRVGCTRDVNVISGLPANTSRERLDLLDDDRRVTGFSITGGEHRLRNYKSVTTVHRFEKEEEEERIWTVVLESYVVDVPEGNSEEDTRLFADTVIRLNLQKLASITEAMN; partner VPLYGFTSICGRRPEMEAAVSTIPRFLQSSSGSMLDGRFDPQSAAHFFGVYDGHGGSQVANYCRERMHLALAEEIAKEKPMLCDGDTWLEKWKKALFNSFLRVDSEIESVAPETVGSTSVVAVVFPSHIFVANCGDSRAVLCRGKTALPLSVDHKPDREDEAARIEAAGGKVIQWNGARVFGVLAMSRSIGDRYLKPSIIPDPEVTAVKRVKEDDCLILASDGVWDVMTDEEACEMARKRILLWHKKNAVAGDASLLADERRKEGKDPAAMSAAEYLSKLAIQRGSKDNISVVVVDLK
Variant,relative binding score
D75T,42.7%
R111D,15%
H16T,0.281%
E128V,7.04%
L112A,-4.54%
E125M,23%
R69D,-4.85%
S87A,11.1%
N149V,56.3%
R74N,22%
V118G,2.1%
G107F,-4.91%

# Set 2 — target: UBE2M UBC core domain (UniProt P61081); method: yeast two-hybrid; medium: yeast; setting: mostly zero background; relative to: not given; reading: higher = stronger interaction
# Chain of UniProt P61081 (whole entry, looked up): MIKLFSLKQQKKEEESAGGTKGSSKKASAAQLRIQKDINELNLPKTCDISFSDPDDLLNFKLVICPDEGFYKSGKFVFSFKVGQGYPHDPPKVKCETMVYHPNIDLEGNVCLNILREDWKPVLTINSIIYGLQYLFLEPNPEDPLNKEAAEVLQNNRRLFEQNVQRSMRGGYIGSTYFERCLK
# B1: RNF130 RING domain (UniProt Q86XS8); chain DKETDPDFDHCAVCIESYKQNDVVRILPCKHVFHKSCVDPWLSEHCTCPMCKLNILKALGIV
# B2: NHLRC1 RING domain (UniProt Q6VVB1); chain MREAEISLLECKVCFEKFGHRQQRRPRNLSCGHVVCLACVAALAHPRTLALECPFCRRACRGCDTSD
# B3: RNF115 RING domain (UniProt Q9Y4L5); chain TQEQVDMGLECPVCKEDYTVEEEVRQLPCNHFFHSSCIVPWLELHDTCPVCRKSLNGEDSTR
# B4: RMND5B RING domain (UniProt Q96G75); chain MKCWYHSVFACPILRQQTSDSNPPIKLICGHVISRDALNKLINGGKLKCPYCPMEQNPADGK
# B5: RNF17 RING domain (UniProt Q9BXT8); chain SQPWGAAEIQCTRCGRRVSRSSGHHCELQCGHAFCELCLLMTEECTTIICPDCEVATAVNTRQR
# B6: SHPRH RING domain (UniProt Q149N8); chain KTSGGVNPEPCPICARQLGKQWAVLTCGHCFCNECISIIIEQYSVGSHRSSIKCAICRQTTSHKEISY
Molecule,lacZ reporter activity
B1 (RNF130 RING domain),0
GSEEEEIPFRCFICRQAFQNPVVTKCRHYFCESCALEHFRATPRCYICDQPTGGIFNPA (RNF113B RING domain (UniProt Q8IZP6)),0
B2 (NHLRC1 RING domain),0
B3 (RNF115 RING domain),0
B4 (RMND5B RING domain),0
EIKDYKARLTCPCCNMRKKDAVLTKCFHVFCFECVKTRYDTRQRKCPKCNAAFGANDFHR (RNF20 RING domain (UniProt Q5VTR2)),0
MEEMEEELKCPVCGSFYREPIILPCSHNLCQACARNILVQTPESESPQSHRAAGSGVSDY (TRIM9 RING domain (UniProt Q9C026)),0
B5 (RNF17 RING domain),0
B6 (SHPRH RING domain),0

# Set 3 — method: RNA Bind-n-Seq; molecule type: RNA; medium: in vitro; concentration: 365 nM; relative to: no-protein control; reading: higher = stronger binding
# Target: RNA binding protein fox-1 homolog 2, RRM domain, GST-SBP tag (RBFOX2, Homo sapiens, UniProt O43251-10, residues 100-194)
# Setting: natural RNA segment, single round, ends assumed
# All sequences stand within: GGGAGUUCUACAGUCCGACGAUC … UGGAAUUCUCGGGUGCCAA
# Target sequence (chain): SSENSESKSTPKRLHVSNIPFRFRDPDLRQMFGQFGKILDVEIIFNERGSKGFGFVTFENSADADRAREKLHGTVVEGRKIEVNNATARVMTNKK
Oligonucleotide,RBNS enrichment (R)
CUCACUGCACAGCUUCUAGGUAGCCUUCCAACUUAAUCUAACUUGAGCCUCACAGUAACCCUGUAAAGUUAGUAGAGCUUGUUCUUGUAUUGUGACCUUUUUUAAAAAAA,0.975
CAAUAUAAAAAACAUUUUAAAUUUCCUAGAAAUGUCUUCAGGGUAAUGCCAAUUUAAGAUCUCUCUUAACUUGUGGCCAAGAAAUUCUAGAUUUUCCAGCUGACUUUGGU,0.336
UGUGACCGUUUCGAUGUUGAUAAGAAGGUGAAUUUACUGUAGUGUUACCACCUUCUCCCCACUUGAUGGUUCUUGACUUUGUAAAAAUUUAAAUAAAUGAAUGUCUAUAC,0.441
UGACUUUGUUAUAAAAAUAGGGCUCCCCCACCUCCCCCAUUUCUGUGUCCUUUAUUGUAGCAUUGCUGUCUGCAAGGGAGCCCCUAGCCCCUGGCAGACAUAGCUGCUUC,0.635
GUGUCUUUGGUAGGGGUGUAUUUUUAUUACACAGAGUUUUUGAACAUAUAGGGACCCCACCAAGAGGCUCUCCUCUCCCCUUCUUAAUCCCAGUAUAGACUGAGUGUCCA,0.43
GGCCACUCUGUGAAUACAUGAUCUUGCAAUGUUGGGUUAUUCCAGCCAAAGACAUUUCAAGUGCCUGUAACUGAUUUGUCCAUAUUUAUAAACACUGAUCUGGAAAUUGG,0.539
UUUUUCCAAGGAGUGAAUGUGGUUUAAUUACUGGACUCUCUUAGCACAGGAAGGUGGAAACAAAAUGCCAGGCCUCUGCUCUGAAGAGCAAAACUGCUGUCGCUGCAGUA,0.307
CUAUGCUGCCUAGGCUGACCUUGAACUCCUGGGCUCAAGCAGUCUACCCACCUCAGCCUCCUGUGUAGCUGGGAUUAUAGAUUGGAGCCACCAUGCCCAGCUCAGAGGGU,0.364
AGACACAAACCAGCACGUCAAGGGCCUAGCUCCUCCCCACCCCGGCAUUUCAGCGUCAAGUGCACUUAGCGGGGUACCCAGCCCCCCCAGUCCCAACACCUGUCCUGUGU,0.341
GACUCUCUGCCUCACCCGCUUCAGCCCAGGGCCCCUGGAGACUGAUCCCCUCUGAGUCCUCUGCCCCUUCCAAGGACACUAAUGAGCCUGGGAGGGUGGCAGGGAGGAGG,0.463
CAGAACAAGUUACCUGUCACAUUGAAGAAAAGGGUAGGCACUAAAGGGAGAACACAGAAAGAAGAAUUUCUAAAAUAUUGGAUUUACUUCUUAUAUUGAGUCAGAUGCAU,0.677
AGUUGUUUUACCUUUCAUCCCAAUCUGAAAAGUUUUAAUAAAUGCUGAGCUUAUUCUUAGGGUAUGACCUGGCAUUAUUUCCAGUGACUAGUCAGGCAUUAUGCCUGAUG,0.25

# Set 4 — target: CCNB3, cyclin fold, Cln2 fusion (human); method: yeast growth competition, sequencing; medium: yeast; setting: weak parent motif; relative to: not given; reading: higher = stronger binding
# Starting sequence: FOXM1 docking peptide (human); PHLARPIKVESPP
Variant,normalised enrichment score
PHLARPIKVASPP [E10A],-0.241
PHLAAPIKVESPP [R5A],-0.249
PHLARPIKAESPP [V9A],-0.0197
PHLARPIKVESPA [P13A],-0.163
PHLARPIKVEAPP [S11A],0.0766
PHLARAIKVESPP [P6A],-0.2

# Set 5 — method: RNA Bind-n-Seq; molecule type: RNA; medium: in vitro; concentration: 200 nM; setting: whole 134-nt RNA, ends assumed; together with: 150 mM KCl; relative to: input library; reading: higher = stronger binding
# Target: Ras GTPase-activating protein-binding protein 1, full length (G3BP1, Homo sapiens, UniProt Q13283)
# Chain of UniProt Q13283 (whole entry, looked up): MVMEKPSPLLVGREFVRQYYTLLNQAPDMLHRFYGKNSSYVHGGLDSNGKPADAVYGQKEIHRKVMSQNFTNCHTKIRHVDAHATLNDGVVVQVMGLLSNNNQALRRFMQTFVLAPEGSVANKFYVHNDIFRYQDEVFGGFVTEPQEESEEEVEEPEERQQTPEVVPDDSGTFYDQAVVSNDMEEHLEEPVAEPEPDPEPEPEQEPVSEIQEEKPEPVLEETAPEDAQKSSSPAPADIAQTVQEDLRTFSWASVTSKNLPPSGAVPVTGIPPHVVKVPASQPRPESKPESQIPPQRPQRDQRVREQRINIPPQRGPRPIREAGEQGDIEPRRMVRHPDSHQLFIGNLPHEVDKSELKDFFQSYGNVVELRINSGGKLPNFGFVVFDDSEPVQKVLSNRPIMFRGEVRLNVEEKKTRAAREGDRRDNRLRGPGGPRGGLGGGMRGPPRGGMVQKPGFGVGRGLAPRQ
# All sequences stand within: GGGAGUUCUACAGUCCGACGAUC … UGGAAUUCUCGGGUGUCAAGG
Oligonucleotide,log2 enrichment
CUCAAGUCCUGUGCUACACAUCGUAUGUACCGAAUCGUGUGUGUGUGUGUGUGUAAAGUAUUAUGUUACGCCGUUCGGAUCUGCACUUCC,0.138
CCUGUGCUACACAUCGUAUGUACCGAAUCAAACCCCCAAAUUUUUUUAAAUUUUUUUAAAAAAGUAUUAUGUUACGCCGUUCGGAUCUGC,0.217
UGGCCCUGGUGGCAUGCGGGGAGGAAGAGGUGGCCUCAUGGAUCGUGGUGGUCCCGGUGGAAUGUUCAGAGGUGGACGUGGUGGAGACAG,0.365
CAAGUCCUGUGCUACACAUCGUAUGUACCGAAUCGGGUGGGAAAGGGAAAAAGGGAAAGUAUUAUGUUACGCCGUUCGGAUCUGCACUUC,0.462
GCAGGAAGUAAAAACAAAUGGAAAUGCUUCGGAUUGUGGCAGGGGUGGGGGUUGCUAAGGAAAGGGUGGGAUGGGAGUGGGUAAAGAGUU,1.12
CUCAAGUCCUGUGCUACACAUCGUAUGUACCGAAUCGGUGGAAAAAAAGGUGGAAAGUAUUAUGUUACGCCGUUCGGAUCUGCACUUCCA,-0.363
ACCAUGCAGGUUGGCAUCUUUGGGAAGUGGGGCAAGGGGGGGAUAGGGAGGGGGGUAACACUUUGGGAACAGGUGGUCCCAGGUCGUUUC,1.57
UUGAAAGAAUUUGCCAACUUUGACUUUGAUGUCUGGAGGAAAAAGUAUAUGCGUUGGAUGAAUCACAAAAAGUCUCGAGUGAUGGAUUUC,-1.8
UCCUGUGCUACACAUCGUAUGUACCGAAUCGGUUUUUUGGUUUUUUGGGGUUUUUUGGGGAAAGUAUUAUGUUACGCCGUUCGGAUCUGC,-0.615
UCCUCAAGUCCUGUGCUACACAUCGUAUGUACCGAAUCGGGCGGGCGGCGGGAAAGUAUUAUGUUACGCCGUUCGGAUCUGCACUUCCAG,0.139
AGUCCUGUGCUACACAUCGUAUGUACCGAAUCGGGAAAAAAAGGGUUUGGGAAAGGGAAAGUAUUAUGUUACGCCGUUCGGAUCUGCACU,-0.344
UCCUCAAGUCCUGUGCUACACAUCGUAUGUACCGAAUCGGUUGGUUGGUUGGAAAGUAUUAUGUUACGCCGUUCGGAUCUGCACUUCCAG,0.0473
CAAGUCCUGUGCUACACAUCGUAUGUACCGAAUCGGAAAGGAAAAAAAGGAAAGGAAAGUAUUAUGUUACGCCGUUCGGAUCUGCACUUC,-0.963
CAAGUCCUGUGCUACACAUCGUAUGUACCGAAUCGGUUUUGGUUUUGGUUUUGGGAAAGUAUUAUGUUACGCCGUUCGGAUCUGCACUUC,-1.17

# Some of these lines once more (set 4):
Variant,normalised enrichment score
PHLARPIKVESPA [P13A],-0.163
PHLARPIKAESPP [V9A],-0.0197
PHLARPIKVEAPP [S11A],0.0766
PHLAAPIKVESPP [R5A],-0.249
PHLARPIKVASPP [E10A],-0.241
PHLARAIKVESPP [P6A],-0.2
